Measured values collected from several papers.
Every numbered part comes from another study and shows a few of its results, in no order. Substitutions count along the parent as printed.

Series 1
Target: Interferon regulatory factor 3, full length, phosphomimetic (IRF3, Homo sapiens, UniProt Q14653, residues 1-427, S386D/S396D/S398D/S402D/T404D/S405D)
Sequence of UniProt Q14653 (whole entry, unmodified, looked up): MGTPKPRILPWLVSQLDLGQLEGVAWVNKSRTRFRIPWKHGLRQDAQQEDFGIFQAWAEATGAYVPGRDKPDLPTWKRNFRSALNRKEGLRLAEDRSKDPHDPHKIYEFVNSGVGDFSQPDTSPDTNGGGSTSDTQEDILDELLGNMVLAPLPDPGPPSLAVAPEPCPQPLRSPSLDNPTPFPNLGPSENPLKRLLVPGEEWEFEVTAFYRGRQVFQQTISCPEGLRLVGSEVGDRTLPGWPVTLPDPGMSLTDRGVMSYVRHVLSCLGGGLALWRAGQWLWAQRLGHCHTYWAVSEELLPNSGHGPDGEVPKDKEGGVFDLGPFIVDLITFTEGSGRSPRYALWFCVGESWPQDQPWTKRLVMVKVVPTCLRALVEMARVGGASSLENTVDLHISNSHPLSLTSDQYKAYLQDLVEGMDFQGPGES
Technique: protein-binding microarray
Form: double-stranded DNA, one strand shown
Sample: in vitro
Tested at: 2540 nM top
Notes: 60-bp whole probe
With: salmon DNA 0.4 mg/ml
Reference: random background probes
Direction: higher = stronger binding
All sequences stand within: GCCTAGCAC … GTCTTGATTCGCTTGACGCTGCTG
Sequence	fitted relative affinity [z-score]
GACGGAATCGGTATCGGGACGTGCTAG	2.02
TCATGATCCATTTTGGTACTGTGCTAG	2.91
TTAGGTTTCGGTTCCGGTAAGTGCTAG	11.4
CGCTTTCTTTAACTCATTTTGTGCTAG	1.33
GACGAACTGGGGTTTAGAGACGTGCTA	-0.619
TGTACTTTCTATCTCTGTTTGTGCTAG	3.61
ATGCTGGTCACTCTCTGGGCGTGCTAG	-0.226
TTAGAAATGAGACTGGATTAGTGCTAG	-0.0708
CTTCCTCTTTCTCTGCTACCGTGCTAG	3.12
GGAAATTCCAAGTTCATGGGGTGCTAG	0.286
TTAGAACTGGGGTATCGTTTAGTGCTA	-0.165
TTAGATATCAGTTCCGATTAGTGCTAG	2.65
GAGTGCTGGGATTACAGGCAGTGCTAG	-0.739
TTAGAACTGGGTATCGGTTAGTGCTAG	0.597
TCACCTTTTTTTTTTTTACTGTGCTAG	2.4
GACAGTATCGGACTGGGGACGTGCTAG	1.53
GACGGTTTCCTTCTTCTGACGTGCTAG	9.75
GACGGTTTCGACTTTCGAGACGTGCTA	3.99
TTAGAACTGCGACTGGATTAGTGCTAG	-0.558
TTAGATCTCAGTTTCGTTTAGTGCTAG	3.75
GTAGATCTCAGTCTCGATTAGTGCTAG	0.669
TCATATATGTGATTAAAACTGTGCTAG	0.531
GACGGTATCCTACTGCTAACGTGCTAG	2.71
TCAGGTATCGACTTTCGGTTAGTGCTA	2.25
ATAGGTTTCGACTATCGGTTAGTGCTA	2.67

Series 2
Target: Fragile X messenger ribonucleoprotein 1, C-terminal low-complexity region (Fmr1, Mus musculus, UniProt P35922)
Technique: RNA Bind-n-Seq
Form: RNA
Sample: in vitro
Tested at: 200 nM
Notes: whole 134-nt RNA, ends assumed
With: 150 mM KCl
Reference: input library
Direction: higher = stronger binding
All sequences stand within: GGGAGUUCUACAGUCCGACGAUC … UGGAAUUCUCGGGUGUCAAGG
Sequence	log2 enrichment
UGGGAGGUGGAUUUUGUUUAUUUUUUUAGCUCAUUUCCAGGGGUGGGAAUUUUUUUUUAAUAAGUGUCAUGAAUAAAGUUGUUUUUGAAA	0.215
GAGGAGACUCUGCGCAGAGCACUUUGGGUCCGGAGGGCGAGACUCCGGCGGAAGCAUUCCCGGGCGGGUGACCCAGCACGGUCCCUCUUG	-1.29
CAAGUCCUGUGCUACACAUCGUAUGUACCGAAUCGGUUUUUUUGGAGGAAAAAGGAAAGUAUUAUGUUACGCCGUUCGGAUCUGCACUUC	-0.488
ACCCUGCAGGUGGGCAUCUUUGGGAAGUGGGGCAAGGGGGGGAUAGGGAGGGGGGUAACACUUUGGGAACAGGUGGUCCCAGGUCGUUUC	1.04
AGAGAAAAGGAACAGUUCCGUAAGCUCUUUAUUGGUGGCUUAAGCUUUGAAACCACAGAAGAAAGUUUGAGGAACUACUACGAACAAUGG	-1.96
ACCAUGCAGGUGGGCAUCUUUGAAAAGUGGGGCAAGGGGGGGAUAGGGAGGGGGGUAACACUUUGGGAACAGGUGGUCCCAGGUCGUUUC	0.937
UGGCCCUGGUGGCAUGCGGGGAGGAAGAGGUGGCCUCAUGGAUCGUGGUGGUCCCGGUGGAAUGUUCAGAAGUGGCCGUGGUGGAGACAG	0.197
UAACUUUAGAGGAGGAUCUGAUGGAUAUGGCCGUGGACGUGGAUUUGGGGAUGGCUAUAAUGGGUAUGGAGGAGGACCUGGAGGUGGCAA	0.353
UCCUGUGCUACACAUCGUAUGUACCGAAUCGGGGCCCCCGGGGCCCCCGGGGCCCCCGGGAAAGUAUUAUGUUACGCCGUUCGGAUCUGC	-0.0596
CACAGACAACACGCACCCACACAGACACAGGGGGAAGGGGUUGGGAUGGGGACAGGGUGCACAGCAGGGCGGGGUAGGACCCCAGCCCCU	1.3
CUCAAGUCCUGUGCUACACAUCGUAUGUACCGAAUCGGGGAGGGAGGGGAGGGGAAAGUAUUAUGUUACGCCGUUCGGAUCUGCACUUCC	1.16
CCUGUGCUACACAUCGUAUGUACCGAAUCGGGGUUUUUGGGGUUUGGGGUUUUUUUGGGGAAAGUAUUAUGUUACGCCGUUCGGAUCUGC	0.495
GCAGGAAGUAAAAACAAAUGGAAAUGCUUCGGAUAGUGGCAGGGGUGGGGGUUGCUAAGGAAAGGGUGGCAUGGGAGUGGGUAAAGAGUU	0.293
AAGUCCUGUGCUACACAUCGUAUGUACCGAAUCGGGAGGGAAAAAGGGAAAAAGGGAAAGUAUUAUGUUACGCCGUUCGGAUCUGCACUU	0.346

Series 3
Target: ABI1, truncated, D143A, DHFR fusion (Arabidopsis thaliana)
Technique: DHFR PCA, deep sequencing
Sample: yeast
Notes: methotrexate growth selection, single substitutions
With: (+)-ABA 2500 µM
Reference: wild-type fitted maximum
Direction: higher = stronger binding
Starting sequence: PYL1, truncated, DHFR fusion (Arabidopsis thaliana); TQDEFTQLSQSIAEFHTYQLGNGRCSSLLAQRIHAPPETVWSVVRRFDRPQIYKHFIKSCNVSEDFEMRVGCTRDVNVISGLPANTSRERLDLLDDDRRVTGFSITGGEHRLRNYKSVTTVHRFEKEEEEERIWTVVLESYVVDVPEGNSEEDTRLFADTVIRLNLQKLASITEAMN; partner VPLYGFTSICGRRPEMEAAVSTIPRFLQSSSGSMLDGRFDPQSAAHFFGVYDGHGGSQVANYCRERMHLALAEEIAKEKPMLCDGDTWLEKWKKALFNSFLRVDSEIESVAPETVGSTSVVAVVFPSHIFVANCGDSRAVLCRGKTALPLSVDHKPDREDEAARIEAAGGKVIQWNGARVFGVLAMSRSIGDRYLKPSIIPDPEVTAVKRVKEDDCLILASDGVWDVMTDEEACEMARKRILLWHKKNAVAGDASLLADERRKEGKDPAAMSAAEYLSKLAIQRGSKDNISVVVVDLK
Substitution	relative binding score [%]
K58Y	92.4
V136Q	94.9
F56R	18.3
D3C	101
P146A	96.8
N85G	95.4
R99S	93.4
Y18A	91.8
N61K	102
V145H	73.9
P50V	79.8
F56P	20.6
L28I	91.4
S27I	5.17
T120G	69.4
M176N	95.7

Series 4
Target: CCND2, cyclin fold, Cln2 fusion (human)
Technique: yeast growth competition, sequencing
Sample: yeast
Notes: weak parent motif
Reference: not given
Direction: higher = stronger binding
Starting sequence: PKN2 docking peptide (human); VSAVQKLDFSDTM
Substitution	normalised enrichment score
V1D	-0.0848
D11E	0.851
D11I	-0.12
V1K	0.604
D11K	0.463
A3K	0.173
S2G	0.58
D8I	0.43
K6G	0.15
T12R	0.571
S2R	0.914
V1Q	0.736
S10P	0.371
K6W	0.379
V4S	-0.276
T12F	0.716

Series 5
Target: UBE2U UBC core domain (UniProt Q5VVX9)
Technique: yeast two-hybrid
Sample: yeast
Notes: mostly zero background
Reference: not given
Direction: higher = stronger interaction
B1: RNF150 RING domain (UniProt Q9ULK6); chain DKETESDFDNCAVCIEGYKPNDVVRILPCRHLFHKSCVDPWLLDHRTCPMCKMNILKALGIP
B2: RNF4 RING domain (UniProt P78317); chain TGLRPSGTVSCPICMDGYSEIVQNGRLIVSTECGHVFCSQCLRDSLKNANTCPTCRKKINHKRYHP
B3: TRIM3 RING domain (UniProt O75382); chain VQPMDKQFLVCSICLDRYQCPKVLPCLHTFCERCLQNYIPAQSLTLSCPVCRQTSILPEQGV
B4: TRIM55 RING domain (UniProt Q9BYV6); chain TMDNLEKQLICPICLEMFTKPVVILPCQHNLCRKCASDIFQASNPYLPTRGGTTMASGGRFRCPSCRHEVVLDRHG
B5: TRIM15 RING domain (UniProt Q9C019); chain SLKVVHELPACTLCAGPLEDAVTIPCGHTFCRLCLPALSQMGAQSSGKILLCPLCQEEEQAETPMA
B6: NSMCE1 RING domain (UniProt Q8WV22); chain RETYPDAVKICNICHSLLIQGQSCETCGIRMHLPCVAKYFQSNAEPRCPHCNDYWPHEIPKV
B7: RNF32 RING domain (UniProt Q9H0A6); chain SLLQGDSVQPCPICKEEFELRPQVLLSCSHVFHKACLQAFEKFTNKKTCPLCRKNQYQTRVIH
B8: TRIM52 RING domain (UniProt Q96A61); chain PMQTLQEEAVCAICLDYFKDPVSISCGHNFCRGCVTQLWSKEDEEDQNEEEDEWEEEEDEEAV
Construct (chain): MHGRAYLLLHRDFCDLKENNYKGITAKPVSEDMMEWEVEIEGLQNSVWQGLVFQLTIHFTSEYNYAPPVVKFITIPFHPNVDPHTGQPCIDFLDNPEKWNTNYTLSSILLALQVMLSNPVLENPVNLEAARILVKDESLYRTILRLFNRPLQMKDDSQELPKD
Sequence	lacZ reporter activity
B1 (RNF150 RING domain)	14700
MANWVFCNRCFQPPHRTSCFSLTNCGHVYCDACLGKGKKNECLICKAPCRTVLLSK (RNF212 RING domain (UniProt Q495C1))	0
B2 (RNF4 RING domain)	0
B3 (TRIM3 RING domain)	13700
B4 (TRIM55 RING domain)	18000
B5 (TRIM15 RING domain)	0
B6 (NSMCE1 RING domain)	13200
B7 (RNF32 RING domain)	0
B8 (TRIM52 RING domain)	0
